Measurements gathered from unrelated publications.
Each line is one published result; not all experiments were run side by side. Values joined by “and” are separate records of one study, mostly repeats; a detail may differ. Numbers after ± are the reported error.
HDAC11: Histone deacetylase 11 (HDAC11, Homo sapiens, UniProt Q96DB2)
UniProt Q96DB2, sequence (whole entry, looked up): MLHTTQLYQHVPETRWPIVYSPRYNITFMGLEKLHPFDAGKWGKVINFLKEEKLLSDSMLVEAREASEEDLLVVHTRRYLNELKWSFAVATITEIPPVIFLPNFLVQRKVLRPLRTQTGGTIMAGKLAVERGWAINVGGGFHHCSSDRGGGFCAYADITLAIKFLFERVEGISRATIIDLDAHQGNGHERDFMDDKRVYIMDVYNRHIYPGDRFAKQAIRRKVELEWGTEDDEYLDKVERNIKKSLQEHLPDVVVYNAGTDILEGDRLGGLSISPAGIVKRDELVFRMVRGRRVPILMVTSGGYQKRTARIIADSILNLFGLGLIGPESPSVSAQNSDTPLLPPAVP
DRD4: D(4) dopamine receptor (DRD4, Homo sapiens, UniProt P21917)
UniProt P21917, sequence (whole entry, looked up): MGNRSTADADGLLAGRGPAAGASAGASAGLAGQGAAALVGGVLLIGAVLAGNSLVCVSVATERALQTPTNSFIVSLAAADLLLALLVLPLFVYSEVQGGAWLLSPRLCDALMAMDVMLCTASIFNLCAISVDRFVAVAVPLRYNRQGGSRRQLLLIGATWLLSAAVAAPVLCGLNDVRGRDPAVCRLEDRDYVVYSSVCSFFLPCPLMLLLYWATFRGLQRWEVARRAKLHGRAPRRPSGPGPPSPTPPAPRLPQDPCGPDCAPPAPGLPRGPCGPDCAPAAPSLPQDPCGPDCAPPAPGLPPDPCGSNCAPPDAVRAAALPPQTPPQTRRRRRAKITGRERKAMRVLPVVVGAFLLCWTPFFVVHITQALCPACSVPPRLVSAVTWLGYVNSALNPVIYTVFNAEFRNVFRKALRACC
PLAU: Urokinase-type plasminogen activator (PLAU, Homo sapiens, UniProt P00749)
UniProt P30968, sequence (whole entry, unmodified, looked up): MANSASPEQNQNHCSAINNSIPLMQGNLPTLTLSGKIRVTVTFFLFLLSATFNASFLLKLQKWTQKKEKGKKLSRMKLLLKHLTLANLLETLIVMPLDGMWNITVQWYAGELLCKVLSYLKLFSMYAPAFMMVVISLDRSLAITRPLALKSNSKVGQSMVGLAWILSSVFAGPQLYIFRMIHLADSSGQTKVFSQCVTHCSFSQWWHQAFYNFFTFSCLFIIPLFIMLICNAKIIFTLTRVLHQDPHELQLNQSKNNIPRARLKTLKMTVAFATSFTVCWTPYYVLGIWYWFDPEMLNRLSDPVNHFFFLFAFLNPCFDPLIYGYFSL
UniProt P47898, sequence (whole entry, looked up): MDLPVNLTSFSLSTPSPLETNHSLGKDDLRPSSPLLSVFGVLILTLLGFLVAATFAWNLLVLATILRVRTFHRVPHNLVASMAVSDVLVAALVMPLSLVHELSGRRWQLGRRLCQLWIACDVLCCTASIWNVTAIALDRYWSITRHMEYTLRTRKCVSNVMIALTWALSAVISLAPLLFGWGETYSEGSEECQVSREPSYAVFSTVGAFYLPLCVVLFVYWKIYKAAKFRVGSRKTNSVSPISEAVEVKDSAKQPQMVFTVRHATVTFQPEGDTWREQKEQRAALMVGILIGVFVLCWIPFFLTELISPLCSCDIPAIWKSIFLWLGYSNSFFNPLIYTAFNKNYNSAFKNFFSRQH
UniProt P22059, sequence (whole entry, looked up): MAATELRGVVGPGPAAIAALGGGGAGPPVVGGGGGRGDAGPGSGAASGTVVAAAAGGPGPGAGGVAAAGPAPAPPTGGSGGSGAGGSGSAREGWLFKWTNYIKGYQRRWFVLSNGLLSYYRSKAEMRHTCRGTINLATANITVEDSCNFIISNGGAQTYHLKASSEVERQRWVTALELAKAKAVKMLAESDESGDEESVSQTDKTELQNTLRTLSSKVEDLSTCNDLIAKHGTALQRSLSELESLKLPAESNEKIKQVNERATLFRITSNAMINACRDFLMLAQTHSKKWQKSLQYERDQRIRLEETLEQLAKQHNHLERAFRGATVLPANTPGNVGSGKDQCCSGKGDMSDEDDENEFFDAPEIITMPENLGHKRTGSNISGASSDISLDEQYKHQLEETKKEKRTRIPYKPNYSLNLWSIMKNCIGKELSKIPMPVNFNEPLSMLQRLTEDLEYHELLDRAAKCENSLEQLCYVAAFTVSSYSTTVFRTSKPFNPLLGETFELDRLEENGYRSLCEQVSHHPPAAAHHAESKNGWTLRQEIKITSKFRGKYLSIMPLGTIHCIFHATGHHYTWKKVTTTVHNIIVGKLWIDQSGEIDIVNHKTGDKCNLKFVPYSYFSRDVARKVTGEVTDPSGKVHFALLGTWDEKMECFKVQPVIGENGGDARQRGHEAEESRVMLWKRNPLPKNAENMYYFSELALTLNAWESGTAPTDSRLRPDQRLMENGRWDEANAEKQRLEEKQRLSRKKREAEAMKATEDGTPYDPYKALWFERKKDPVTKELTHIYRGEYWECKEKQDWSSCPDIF
UniProt Q6VB83, sequence (whole entry, looked up): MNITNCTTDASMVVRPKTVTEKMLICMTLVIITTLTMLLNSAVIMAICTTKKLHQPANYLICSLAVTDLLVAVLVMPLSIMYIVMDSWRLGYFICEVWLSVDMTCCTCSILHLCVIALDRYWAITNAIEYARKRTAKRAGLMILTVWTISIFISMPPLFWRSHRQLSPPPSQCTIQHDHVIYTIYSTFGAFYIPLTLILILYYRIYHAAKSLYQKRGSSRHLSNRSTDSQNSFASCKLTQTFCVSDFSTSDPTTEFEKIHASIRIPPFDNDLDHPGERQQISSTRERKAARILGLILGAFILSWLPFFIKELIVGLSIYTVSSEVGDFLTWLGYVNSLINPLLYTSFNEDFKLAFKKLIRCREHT
UniProt O14744, sequence (whole entry, looked up): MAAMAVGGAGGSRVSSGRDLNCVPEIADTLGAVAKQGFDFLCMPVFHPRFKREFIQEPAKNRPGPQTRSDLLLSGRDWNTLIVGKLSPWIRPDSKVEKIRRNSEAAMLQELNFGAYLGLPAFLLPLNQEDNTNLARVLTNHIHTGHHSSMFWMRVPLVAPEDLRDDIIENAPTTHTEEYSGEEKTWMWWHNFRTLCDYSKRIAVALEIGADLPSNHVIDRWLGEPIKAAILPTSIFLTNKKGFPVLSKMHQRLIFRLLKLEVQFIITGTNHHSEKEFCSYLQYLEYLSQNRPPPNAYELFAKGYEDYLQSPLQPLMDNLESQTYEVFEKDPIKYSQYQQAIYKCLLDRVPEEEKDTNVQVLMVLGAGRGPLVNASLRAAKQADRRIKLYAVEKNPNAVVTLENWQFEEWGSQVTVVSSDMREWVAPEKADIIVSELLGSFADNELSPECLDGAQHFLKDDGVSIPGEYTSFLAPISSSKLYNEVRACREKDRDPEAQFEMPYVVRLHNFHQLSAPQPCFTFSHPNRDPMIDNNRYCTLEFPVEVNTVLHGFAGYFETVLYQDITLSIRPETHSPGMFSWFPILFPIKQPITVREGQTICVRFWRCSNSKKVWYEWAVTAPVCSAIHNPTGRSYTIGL
UniProt P52790, sequence (whole entry, unmodified, looked up): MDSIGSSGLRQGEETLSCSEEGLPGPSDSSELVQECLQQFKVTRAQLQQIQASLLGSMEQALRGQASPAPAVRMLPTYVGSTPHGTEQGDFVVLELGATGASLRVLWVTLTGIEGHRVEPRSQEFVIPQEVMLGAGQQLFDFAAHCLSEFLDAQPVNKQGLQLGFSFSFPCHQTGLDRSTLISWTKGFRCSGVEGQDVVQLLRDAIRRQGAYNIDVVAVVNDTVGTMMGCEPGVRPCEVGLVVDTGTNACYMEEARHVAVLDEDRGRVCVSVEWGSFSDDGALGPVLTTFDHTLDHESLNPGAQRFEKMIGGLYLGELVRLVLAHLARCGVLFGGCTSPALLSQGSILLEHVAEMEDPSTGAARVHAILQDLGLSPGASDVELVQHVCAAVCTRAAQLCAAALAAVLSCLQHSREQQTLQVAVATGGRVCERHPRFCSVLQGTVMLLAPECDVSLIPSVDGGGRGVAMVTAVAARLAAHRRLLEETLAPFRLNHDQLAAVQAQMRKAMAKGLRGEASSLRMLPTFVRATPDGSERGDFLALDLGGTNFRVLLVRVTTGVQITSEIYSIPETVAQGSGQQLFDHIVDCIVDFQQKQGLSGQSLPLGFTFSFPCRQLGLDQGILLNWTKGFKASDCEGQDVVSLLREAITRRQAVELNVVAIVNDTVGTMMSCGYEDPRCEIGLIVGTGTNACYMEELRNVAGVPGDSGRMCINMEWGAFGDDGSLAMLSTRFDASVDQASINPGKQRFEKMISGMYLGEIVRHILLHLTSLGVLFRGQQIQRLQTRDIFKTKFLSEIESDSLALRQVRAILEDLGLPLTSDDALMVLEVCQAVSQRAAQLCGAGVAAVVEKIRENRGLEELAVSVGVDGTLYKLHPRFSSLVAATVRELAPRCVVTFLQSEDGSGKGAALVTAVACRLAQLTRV
UniProt P41595, sequence (whole entry, looked up): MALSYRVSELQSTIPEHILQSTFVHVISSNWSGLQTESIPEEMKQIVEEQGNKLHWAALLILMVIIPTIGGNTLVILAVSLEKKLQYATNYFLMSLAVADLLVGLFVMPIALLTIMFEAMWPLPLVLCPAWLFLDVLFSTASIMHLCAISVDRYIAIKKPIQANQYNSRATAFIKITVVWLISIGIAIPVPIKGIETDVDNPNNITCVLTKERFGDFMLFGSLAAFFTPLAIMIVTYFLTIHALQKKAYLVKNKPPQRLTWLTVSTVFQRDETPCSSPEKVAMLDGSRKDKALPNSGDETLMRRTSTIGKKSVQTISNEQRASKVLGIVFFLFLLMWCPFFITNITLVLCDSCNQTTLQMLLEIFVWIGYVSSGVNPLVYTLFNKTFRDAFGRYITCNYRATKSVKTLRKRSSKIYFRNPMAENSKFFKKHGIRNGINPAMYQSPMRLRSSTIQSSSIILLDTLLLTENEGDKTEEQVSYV

CCCCCCC/N=C1\N[C@H](CO)[C@H](O)[C@H](O)[C@H]1O  Ki (β-glucosidase sweet almond; enzyme activity, inhibitor; pH 5.00): 0.0296 ± 0.0061 µM
Cc1cc(OS(=O)(=O)Oc2ccc(C(C)(C)C)cc2C)cc(C(=O)NO)c1  Ki (HDAC11): 1.61 µM
CN(CC[C@@H]1C[C@H]1CNC(=O)c1cc2ccccc2[nH]1)[C@@H]1Cc2cccc3[nH]c(=O)n(c23)C1  Ki (DRD4; binding): 1.32 ± 0.11 µM
O=C(NO)c1cccc(OS(=O)(=O)Oc2ccc(C(F)(F)F)cc2)c1  Ki (HDAC11): 0.511 µM
CN(C)CCN(Cc1ccc(-c2ccc(CNCCc3ccccc3)cc2)cc1)C(=O)CCC1CCCC1  Ki (HTR5A (Homo sapiens, UniProt P47898); binding, radioligand displacement; added: [3H]5-CT): < 2 µM
CC[C@@H](CO)NC(=O)[C@@H]1C=C2c3cccc4c3c(cn4C)C[C@H]2N(C)C1  Ki (5-hydroxytryptamine receptor 1E (5HT1E, Cavia porcellus, UniProt Q6VB83); binding, radioligand competition; AV12 cell membranes; pH 7.4, 37 °C, added: [3H]5-HT): 0.0347 µM
OC[C@H]1OC(O)[C@H](O)[C@@H](O)[C@@H]1O (stereo partly drawn)  Ki (Hexokinase-3 (HK3, Homo sapiens, UniProt P52790, R807A); substrate inhibition; mutant R807A, partial substrate inhibition model, added: ATP 20 mM): 7000 ± 1000 µM
CCC/N=C1\N[C@H](CO)[C@H](O)[C@H](O)[C@H]1O  Ki (β-glucosidase sweet almond; enzyme activity, inhibitor; pH 5.00): 0.0187 µM and 0.0147 µM
COC(=O)Nc1cc(C(=O)Nc2ccccc2)cc2ccc(C(=N)N)cc12  Ki (PLAU; inhibitor; pH 7.4): 0.018 µM
Cc1cc(C)cc(-c2[nH]c3ccc(C(C)(C)C(=O)N4CC5CCC4CC5)cc3c2[C@H](C)CNCCc2ccncc2)c1  Ki (GNRHR (Homo sapiens, UniProt P30968, del191-191); binding, NanoBRET; 4 h, 4 °C, added: 10 nM sCy5-D-Lys6-GnRH): 0.00077 ± 0.00018 µM
O=C(NO)c1cccc(OS(=O)(=O)Oc2ccc(-c3cccc(C(F)(F)F)c3)cc2)c1  Ki (HDAC11): 1.42 µM
OC[C@H]1N/C(=N\C2CC2)[C@H](O)[C@@H](O)[C@H]1O  Ki (β-glucosidase sweet almond; enzyme activity, inhibitor; pH 5.00): 0.0118 ± 0.0027 µM
CNC(=O)[C@@]12C[C@@H]1[C@@H](n1cnc3c(NC)nc(C#C[c-]4cccc4)nc31)[C@H](O)[C@@H]2O.[Fe+2].c1cc[cH-]c1  Ki (HTR2B (Homo sapiens, UniProt P41595); radioligand binding (PDSP)): 0.318 µM
OC[C@H]1N/C(=N\Cc2cccc(F)c2)[C@H](O)[C@@H](O)[C@H]1O  Ki (β-glucosidase sweet almond; enzyme activity, inhibitor; pH 5.00): 0.124 ± 0.017 µM
Cc1c(OS(=O)(=O)Oc2ccc(Br)cc2)cccc1C(=O)NO  Ki (HDAC11): 0.457 µM
COC/C=C/c1cc(C2CC2c2ccc3c(c2)C(C(C)C)N(C)CC3)cc2ccc(C(=N)N)cc12 (stereo not drawn)  Ki (PLAU; inhibitor; pH 7.4): 0.021 µM
Nc1ncnc2c1ncn2[C@@H]1O[C@H](C[C@@H](N)CC[C@H](N)C(=O)O)[C@@H](O)[C@H]1O  Ki (KMT2C (Homo sapiens, UniProt Q8NEZ4); methyltransferase activity, noncompetitive inhibitor, enzyme-coupled methylation; added: varied H3 peptide): 204 µM
CCCCC(CC)CNC1=N[C@H](CO)[C@H](O)[C@H](O)[C@H]1O (stereo partly drawn)  Ki (β-glucosidase sweet almond; enzyme activity, inhibitor; pH 5.00): 0.0172 ± 0.006 µM
COC(=O)Nc1ccc2nc(C(=N)N)ccc2c1  Ki (PLAU; inhibitor; pH 7.4): > 50 µM
CSC[C@H]1O[C@@H](n2cnc3c(N)ncnc32)[C@H](O)[C@@H]1O  Ki (Protein arginine N-methyltransferase 5, with WDR77 (PRMT5, Homo sapiens, UniProt O14744)): 0.3 µM
CC(C)C[C@H](NC(=O)[C@H](Cc1ccccc1)NC(=O)c1cnccn1)B(O)O  Ki (20S proteasome (Plasmodium falciparum, UniProt A0A5K1K7U1+Q8IJT1); inhibitor, progress curve; Ki as apparent Ki/2): 0.0031 µM
CC(C)C1=NCCc2ccc(NC(=O)c3cc(Br)c4cc(C(=N)N)ccc4c3)cc21  Ki (PLAU; inhibitor; pH 7.4): 0.0157 µM
OC[C@H]1N/C(=N\CC2CCCCCC2)[C@H](O)[C@@H](O)[C@H]1O  Ki (β-glucosidase sweet almond; enzyme activity, inhibitor; pH 5.00): 0.0271 ± 0.0099 µM
Cc1cc(OS(=O)(=O)Oc2ccc(C(F)(F)F)cc2)cc(C(=O)NO)c1  Ki (HDAC11): 0.504 µM
CN1CCc2ccc(C3CC3c3ccc4cc(C(=N)N)ccc4c3)cc2C1c1cccnc1 (stereo not drawn)  Ki (PLAU; inhibitor; pH 7.4): 1.25 µM
COc1ccc(C/N=C2\N[C@H](CO)[C@H](O)[C@H](O)[C@H]2O)cc1  Ki (β-glucosidase sweet almond; enzyme activity, inhibitor; pH 5.00): 0.0559 ± 0.0028 µM
Cc1cc(OS(=O)(=O)Oc2ccc(Oc3ccccc3)cc2)cc(C(=O)NO)c1  Ki (HDAC11): 1.27 µM
CC1Cc2ccccc2N1C(=O)NCCCCN(C)[C@@H]1Cc2cccc3[nH]c(=O)n(c23)C1 (mixture of isomers)  Ki (DRD4; binding): 0.0309 ± 0.00261 µM
O=S(=O)(O)c1cc(O)c(N=Nc2ccc3ccccc3c2O)c2ccccc12  Ki (Diphosphomevalonate decarboxylase (Staphylococcus epidermidis, UniProt Q9FD73); inhibitor; pH 7, added: ATP (varied)): 6.8 ± 0.8 µM
C[C@H](CCCC(C)(C)O)[C@H]1CC[C@H]2[C@@H]3CC=C4C[C@@H](O)CC[C@]4(C)[C@H]3CC[C@]12C  Ki (OSBP (Homo sapiens, UniProt P22059)): 0.026 ± 0.007 µM
N=C(N)c1ccc2cc(C(=O)Nc3ccccc3)cc(-c3ncccn3)c2c1  Ki (PLAU; inhibitor; pH 7.4): 7.85 µM
Cc1c(OS(=O)(=O)Oc2ccc(Oc3ccccc3)cc2)cccc1C(=O)NO  Ki (HDAC11): 0.149 µM
N=C(N)c1ccc2cc(C(=O)Nc3ccc4c(c3)C(c3ccccc3)=NCC4)ccc2c1  Ki (PLAU; inhibitor; pH 7.4): 0.29 µM
Cc1cc(C(C)(C)C)ccc1OS(=O)(=O)Oc1cccc(C(=O)NO)c1C  Ki (HDAC11): 0.542 µM
OC[C@H]1N/C(=N\Cc2ccccc2F)[C@H](O)[C@@H](O)[C@H]1O  Ki (β-glucosidase sweet almond; enzyme activity, inhibitor; pH 5.00): 0.118 ± 0.027 µM
CS(=O)(=O)n1cc(-c2cc(C(=O)Nc3ccccc3)cc3ccc(C(=N)N)cc23)cn1  Ki (PLAU; inhibitor; pH 7.4): 0.769 µM

Some of these lines once more:
CCC/N=C1\N[C@H](CO)[C@H](O)[C@H](O)[C@H]1O  Ki (β-glucosidase sweet almond; enzyme activity, inhibitor; pH 5.00): 0.0187 µM and 0.0147 µM
COC(=O)Nc1cc(C(=O)Nc2ccccc2)cc2ccc(C(=N)N)cc12  Ki (PLAU; inhibitor; pH 7.4): 0.018 µM
Cc1cc(C)cc(-c2[nH]c3ccc(C(C)(C)C(=O)N4CC5CCC4CC5)cc3c2[C@H](C)CNCCc2ccncc2)c1  Ki (GNRHR (Homo sapiens, UniProt P30968, del191-191); binding, NanoBRET; 4 h, 4 °C, added: 10 nM sCy5-D-Lys6-GnRH): 0.00077 ± 0.00018 µM
O=C(NO)c1cccc(OS(=O)(=O)Oc2ccc(-c3cccc(C(F)(F)F)c3)cc2)c1  Ki (HDAC11): 1.42 µM
OC[C@H]1N/C(=N\C2CC2)[C@H](O)[C@@H](O)[C@H]1O  Ki (β-glucosidase sweet almond; enzyme activity, inhibitor; pH 5.00): 0.0118 ± 0.0027 µM
